Measurements of several laboratories.
Numbered parts are unrelated; each lists some results of a single study.
Sequence of UniProt Q56UN5 (whole entry, looked up): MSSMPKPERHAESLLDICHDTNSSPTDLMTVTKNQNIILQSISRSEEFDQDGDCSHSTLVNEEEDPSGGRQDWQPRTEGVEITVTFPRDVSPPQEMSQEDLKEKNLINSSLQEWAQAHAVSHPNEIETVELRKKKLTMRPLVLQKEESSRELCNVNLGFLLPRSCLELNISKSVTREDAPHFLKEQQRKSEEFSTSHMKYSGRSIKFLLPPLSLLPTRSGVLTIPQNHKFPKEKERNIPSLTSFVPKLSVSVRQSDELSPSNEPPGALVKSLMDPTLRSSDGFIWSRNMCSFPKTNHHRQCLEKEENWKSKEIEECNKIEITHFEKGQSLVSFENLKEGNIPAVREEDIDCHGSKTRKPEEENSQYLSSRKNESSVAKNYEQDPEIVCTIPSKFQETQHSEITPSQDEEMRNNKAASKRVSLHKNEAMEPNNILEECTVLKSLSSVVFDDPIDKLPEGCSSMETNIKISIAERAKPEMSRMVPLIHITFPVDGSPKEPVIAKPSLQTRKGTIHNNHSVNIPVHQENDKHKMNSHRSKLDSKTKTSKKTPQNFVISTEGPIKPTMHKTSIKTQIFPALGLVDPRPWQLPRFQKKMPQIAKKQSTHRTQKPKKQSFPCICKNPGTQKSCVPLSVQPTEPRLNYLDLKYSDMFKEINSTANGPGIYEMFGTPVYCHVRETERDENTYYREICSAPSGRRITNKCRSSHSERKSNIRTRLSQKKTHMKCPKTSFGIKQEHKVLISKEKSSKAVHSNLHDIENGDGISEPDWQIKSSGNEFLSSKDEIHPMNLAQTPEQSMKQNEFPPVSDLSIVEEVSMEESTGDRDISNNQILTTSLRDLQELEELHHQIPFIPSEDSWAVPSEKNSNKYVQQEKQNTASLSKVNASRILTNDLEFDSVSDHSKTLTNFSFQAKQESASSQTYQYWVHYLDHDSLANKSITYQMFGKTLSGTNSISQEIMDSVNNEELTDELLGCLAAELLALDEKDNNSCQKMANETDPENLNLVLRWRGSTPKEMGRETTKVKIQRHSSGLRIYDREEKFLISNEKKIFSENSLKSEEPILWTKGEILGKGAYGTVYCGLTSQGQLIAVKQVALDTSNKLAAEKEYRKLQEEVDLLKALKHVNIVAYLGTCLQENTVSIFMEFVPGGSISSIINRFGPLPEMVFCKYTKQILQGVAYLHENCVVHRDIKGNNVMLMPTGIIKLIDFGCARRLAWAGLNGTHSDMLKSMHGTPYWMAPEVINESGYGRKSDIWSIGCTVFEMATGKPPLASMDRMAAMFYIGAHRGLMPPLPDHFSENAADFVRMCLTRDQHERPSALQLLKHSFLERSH
Sequence of UniProt P42336 (whole entry, unmodified, looked up): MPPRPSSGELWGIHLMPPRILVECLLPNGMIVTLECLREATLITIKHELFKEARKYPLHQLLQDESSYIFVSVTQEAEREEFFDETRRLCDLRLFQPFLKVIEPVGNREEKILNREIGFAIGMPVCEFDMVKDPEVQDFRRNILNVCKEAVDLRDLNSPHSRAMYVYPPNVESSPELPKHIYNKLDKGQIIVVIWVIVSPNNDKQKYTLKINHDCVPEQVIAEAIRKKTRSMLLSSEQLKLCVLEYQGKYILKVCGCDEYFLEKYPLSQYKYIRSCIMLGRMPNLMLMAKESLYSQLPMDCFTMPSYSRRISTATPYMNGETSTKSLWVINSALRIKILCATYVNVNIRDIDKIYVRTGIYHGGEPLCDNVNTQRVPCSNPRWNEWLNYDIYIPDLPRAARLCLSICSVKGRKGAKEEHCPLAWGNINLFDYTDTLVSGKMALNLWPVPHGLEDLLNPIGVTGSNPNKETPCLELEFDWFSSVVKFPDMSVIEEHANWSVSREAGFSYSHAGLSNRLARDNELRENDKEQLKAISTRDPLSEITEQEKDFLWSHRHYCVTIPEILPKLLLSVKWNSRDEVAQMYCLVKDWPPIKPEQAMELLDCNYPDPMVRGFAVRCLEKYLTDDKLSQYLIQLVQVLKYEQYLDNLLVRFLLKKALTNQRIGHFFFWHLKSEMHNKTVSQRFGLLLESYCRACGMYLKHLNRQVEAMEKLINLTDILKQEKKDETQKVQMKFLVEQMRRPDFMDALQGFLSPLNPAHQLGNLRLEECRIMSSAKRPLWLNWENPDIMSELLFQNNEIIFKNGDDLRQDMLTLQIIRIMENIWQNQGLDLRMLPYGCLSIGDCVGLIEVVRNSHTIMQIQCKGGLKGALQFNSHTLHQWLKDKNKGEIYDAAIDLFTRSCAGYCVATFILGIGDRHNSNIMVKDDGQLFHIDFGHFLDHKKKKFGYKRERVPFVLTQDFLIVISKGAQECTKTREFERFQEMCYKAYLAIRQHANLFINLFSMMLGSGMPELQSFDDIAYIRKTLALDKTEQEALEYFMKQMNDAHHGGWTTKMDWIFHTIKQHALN
Sequence of UniProt Q13873 (whole entry, looked up): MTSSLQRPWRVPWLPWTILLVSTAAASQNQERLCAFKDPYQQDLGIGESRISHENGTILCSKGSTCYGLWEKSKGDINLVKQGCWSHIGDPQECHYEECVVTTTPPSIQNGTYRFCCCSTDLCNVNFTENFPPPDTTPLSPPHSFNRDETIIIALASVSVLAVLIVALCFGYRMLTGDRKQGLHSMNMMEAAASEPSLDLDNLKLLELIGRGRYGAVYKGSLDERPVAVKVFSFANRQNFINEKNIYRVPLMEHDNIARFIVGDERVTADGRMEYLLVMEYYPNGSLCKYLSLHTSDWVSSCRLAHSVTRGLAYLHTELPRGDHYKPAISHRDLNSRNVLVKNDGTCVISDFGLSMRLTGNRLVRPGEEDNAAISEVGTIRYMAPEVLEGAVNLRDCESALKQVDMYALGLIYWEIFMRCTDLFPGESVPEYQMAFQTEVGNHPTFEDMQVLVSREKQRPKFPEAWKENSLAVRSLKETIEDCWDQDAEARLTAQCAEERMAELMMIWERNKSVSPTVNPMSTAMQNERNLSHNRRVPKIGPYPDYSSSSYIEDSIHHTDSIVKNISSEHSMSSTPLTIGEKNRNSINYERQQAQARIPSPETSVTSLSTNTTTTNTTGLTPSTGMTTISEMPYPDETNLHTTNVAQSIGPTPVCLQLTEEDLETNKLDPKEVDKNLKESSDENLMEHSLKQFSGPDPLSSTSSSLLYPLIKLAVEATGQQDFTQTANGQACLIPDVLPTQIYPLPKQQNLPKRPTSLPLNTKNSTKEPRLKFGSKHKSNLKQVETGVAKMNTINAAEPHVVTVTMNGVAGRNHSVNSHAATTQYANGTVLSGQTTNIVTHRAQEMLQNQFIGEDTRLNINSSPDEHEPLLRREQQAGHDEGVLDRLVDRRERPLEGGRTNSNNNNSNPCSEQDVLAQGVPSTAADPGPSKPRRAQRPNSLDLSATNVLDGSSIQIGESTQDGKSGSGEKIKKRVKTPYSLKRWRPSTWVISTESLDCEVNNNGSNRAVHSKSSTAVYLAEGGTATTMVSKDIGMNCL

Sample 1 — technique: protein binding microarray; form: double-stranded DNA, one strand shown; medium: in vitro; tested at: not given; reference: not given; direction: higher = stronger binding
Target: Histone acetyltransferase KAT6A, winged helix 1, GST fusion (KAT6A, Homo sapiens, UniProt Q92794, residues 1-85)
Setting: 8-mer, flanks averaged, mean of 2 arrays, mostly near background
Residues (chain): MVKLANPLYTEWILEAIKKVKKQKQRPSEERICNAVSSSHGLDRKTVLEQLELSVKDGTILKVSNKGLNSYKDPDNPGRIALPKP
`GCCGATTA` has an E-score of 0.126.
`CCGTCCCG` gave an E-score of 0.406.
With `AGATCTTG` the E-score was -0.259.
The E-score of `CGAGACCG` is reported as 0.243.
The E-score of `GGGATCCC` is reported as 0.166.
The E-score of `CTGACTTC` is reported as 0.0228.
`CCACATCG` has an E-score of 0.112.
`CCCGGTAG` has an E-score of 0.282.

Sample 2 — effect on: cell-free assay; technique: competition with immobilised ligand; tested at: 1 µM
SMILES: CN(C)c1ncnc(-c2ccc3nc(Nc4cc(CN5CCN(C(=O)CC(F)(F)F)CC5)ccn4)[nH]c3c2)c1Cl
MET (Homo sapiens, UniProt P08581, Y1235D) — remaining binding: 68%.
The remaining binding was 15% (FLT3 (Homo sapiens, UniProt P36888, D835V/ITD)).
For BMPR2 (Homo sapiens, UniProt Q13873): remaining binding read 61%.
The remaining binding was 15% (MAP3K19 (Homo sapiens, UniProt Q56UN5)).
PIK3CA (Homo sapiens, UniProt P42336, Q546K) — remaining binding: 30%.

Sample 3 — host: human; medium: microsomes or S9; tested at: 2 µM; time: 0.5 h
`CN1CCC2(CCN(c3cc(C(C)(C)C)nc(Cl)n3)CC2)C1=O` has a remaining compound of over 100%.
`CC(C)n1nc(CNc2ccc(Cl)cc2)[nH]c1=O` has a remaining compound of 67.6%.
The remaining compound of `c1ccc(-c2cn3c4ccccc4n(CCN4CCOCC4)c3n2)cc1` is reported as 11.6%.
`CC(Cc1ccccc1)NC(=O)C1CCCNC1=O` (stereo not drawn) has a remaining compound of 83.9%.
For `COc1ccc(C)cc1NC(=O)c1cc(S(=O)(=O)N2CCOCC2)cn1C`, the remaining compound was 42.5%.

Sample 4 — effect on: enzyme activity; action: inhibitor; tested at: 0.5 µM; reference: control
Target: Serine/threonine-protein kinase PAK 3 (PAK3, Homo sapiens, UniProt O75914)
Sequence of UniProt O75914 (whole entry, looked up): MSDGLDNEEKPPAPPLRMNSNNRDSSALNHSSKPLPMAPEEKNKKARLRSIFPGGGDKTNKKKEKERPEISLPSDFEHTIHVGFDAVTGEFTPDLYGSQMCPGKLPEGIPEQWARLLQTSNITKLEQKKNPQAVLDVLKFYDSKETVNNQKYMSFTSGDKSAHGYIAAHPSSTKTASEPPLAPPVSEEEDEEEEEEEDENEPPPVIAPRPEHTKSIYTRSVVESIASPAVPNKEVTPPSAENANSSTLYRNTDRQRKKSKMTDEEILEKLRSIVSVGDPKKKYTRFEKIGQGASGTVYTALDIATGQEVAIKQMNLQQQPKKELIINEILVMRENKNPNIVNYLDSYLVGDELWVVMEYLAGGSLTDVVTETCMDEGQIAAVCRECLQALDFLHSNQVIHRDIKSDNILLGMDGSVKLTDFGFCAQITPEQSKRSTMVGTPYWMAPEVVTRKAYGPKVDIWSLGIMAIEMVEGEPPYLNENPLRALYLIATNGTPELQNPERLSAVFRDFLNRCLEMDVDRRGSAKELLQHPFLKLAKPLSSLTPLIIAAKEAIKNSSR
For `O=C(Nc1cccc(Nc2cc(Nc3cccc(C(F)(F)F)c3)ncn2)c1)C1CC1`, the remaining activity was 101%.
With `N#CC(C#N)=C(N)/C(C#N)=C/c1ccc(O)cc1` the remaining activity was 98.4%.
`CN(C)c1ccc(C=C2C(=O)Nc3ccccc32)cc1` gave a remaining activity of 99%.
With `COc1cc2ncnc(Nc3ccc(Oc4ccccc4)cc3)c2cc1OC` the remaining activity was 98.1%.
`C#Cc1cccc(Nc2ncnc3cc(OCCOC)c(OCCOC)cc23)c1` has a remaining activity of 106%.
For `O=C(O)c1ccc2c3c1cccc3c(=O)n1c3ccccc3nc21`, the remaining activity was 97.6%.
For `CNC(=O)c1cc(Oc2ccc(NC(=O)Nc3ccc(Cl)c(C(F)(F)F)c3)cc2)ccn1`, the remaining activity was 103%.
`OCC(O)CCON=C1C(c2c(O)[nH]c3ccccc23)=Nc2ccccc21` (stereo not drawn) has a remaining activity of 73.8%.
`COc1ccc(CNC(=O)Nc2ncc([N+](=O)[O-])s2)cc1` gave a remaining activity of 94.6%.
For `O=C1NC(=O)C(c2cn(CCCn3ccnc3)c3ccccc23)=C1Nc1ccccc1`, the remaining activity was 100%.
`Nc1ncnc2n[nH]c(Nc3ccc(F)cc3)c12` has a remaining activity of 104%.
`Cc1ccc(Nc2nccc(N(C)c3ccc4c(C)n(C)nc4c3)n2)cc1S(N)(=O)=O` gave a remaining activity of 90.6%.
With `Nc1[nH]nc2nc3ccccc3nc12` the remaining activity was 98.3%.
The remaining activity of `CCOC(=O)c1c(C)[nH]c(/C=C2\C(=O)Nc3ccccc32)c1C` is reported as 99.1%.

Single results of other studies
With `c1ccc(Oc2ccc(Nc3c4c(nc5ccccc35)CCC4)cc2)cc1` the inhibition was 100% (Leishmania donovani; parasite killing; DD8, intracellular amastigotes; 40 µM, 96 h).

For quick reference, copied from above (sample 4):
`CN(C)c1ccc(C=C2C(=O)Nc3ccccc32)cc1` gave a remaining activity of 99%.
`COc1ccc(CNC(=O)Nc2ncc([N+](=O)[O-])s2)cc1` gave a remaining activity of 94.6%.
`Cc1ccc(Nc2nccc(N(C)c3ccc4c(C)n(C)nc4c3)n2)cc1S(N)(=O)=O` gave a remaining activity of 90.6%.
With `COc1cc2ncnc(Nc3ccc(Oc4ccccc4)cc3)c2cc1OC` the remaining activity was 98.1%.
`Nc1ncnc2n[nH]c(Nc3ccc(F)cc3)c12` has a remaining activity of 104%.
